Measurements collected from several papers.
Parts stem from different laboratories: compare values within a part only.
UniProt P33981, sequence (whole entry, looked up): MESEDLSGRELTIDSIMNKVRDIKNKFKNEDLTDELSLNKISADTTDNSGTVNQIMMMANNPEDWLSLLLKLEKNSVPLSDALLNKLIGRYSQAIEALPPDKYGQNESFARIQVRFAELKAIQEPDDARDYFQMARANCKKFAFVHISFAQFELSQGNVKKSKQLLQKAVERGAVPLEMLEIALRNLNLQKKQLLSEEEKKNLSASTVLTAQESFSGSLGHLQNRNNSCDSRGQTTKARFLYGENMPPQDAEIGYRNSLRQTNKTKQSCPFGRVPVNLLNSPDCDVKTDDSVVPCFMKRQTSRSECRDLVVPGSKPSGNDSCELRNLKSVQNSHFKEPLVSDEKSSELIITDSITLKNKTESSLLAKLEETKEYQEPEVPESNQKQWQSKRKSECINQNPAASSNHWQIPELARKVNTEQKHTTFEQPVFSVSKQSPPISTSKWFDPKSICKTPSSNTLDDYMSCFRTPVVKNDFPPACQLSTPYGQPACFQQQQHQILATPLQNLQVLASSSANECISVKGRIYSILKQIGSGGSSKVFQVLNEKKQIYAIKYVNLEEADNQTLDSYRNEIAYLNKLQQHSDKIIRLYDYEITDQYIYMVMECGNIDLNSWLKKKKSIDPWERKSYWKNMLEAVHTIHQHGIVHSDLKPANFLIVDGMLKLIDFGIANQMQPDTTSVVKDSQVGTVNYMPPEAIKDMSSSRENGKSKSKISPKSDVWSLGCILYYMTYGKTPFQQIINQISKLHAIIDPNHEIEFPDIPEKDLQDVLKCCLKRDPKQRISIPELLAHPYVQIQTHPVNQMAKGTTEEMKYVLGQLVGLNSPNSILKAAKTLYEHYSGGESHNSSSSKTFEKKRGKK
UniProt O75460, sequence (whole entry, looked up): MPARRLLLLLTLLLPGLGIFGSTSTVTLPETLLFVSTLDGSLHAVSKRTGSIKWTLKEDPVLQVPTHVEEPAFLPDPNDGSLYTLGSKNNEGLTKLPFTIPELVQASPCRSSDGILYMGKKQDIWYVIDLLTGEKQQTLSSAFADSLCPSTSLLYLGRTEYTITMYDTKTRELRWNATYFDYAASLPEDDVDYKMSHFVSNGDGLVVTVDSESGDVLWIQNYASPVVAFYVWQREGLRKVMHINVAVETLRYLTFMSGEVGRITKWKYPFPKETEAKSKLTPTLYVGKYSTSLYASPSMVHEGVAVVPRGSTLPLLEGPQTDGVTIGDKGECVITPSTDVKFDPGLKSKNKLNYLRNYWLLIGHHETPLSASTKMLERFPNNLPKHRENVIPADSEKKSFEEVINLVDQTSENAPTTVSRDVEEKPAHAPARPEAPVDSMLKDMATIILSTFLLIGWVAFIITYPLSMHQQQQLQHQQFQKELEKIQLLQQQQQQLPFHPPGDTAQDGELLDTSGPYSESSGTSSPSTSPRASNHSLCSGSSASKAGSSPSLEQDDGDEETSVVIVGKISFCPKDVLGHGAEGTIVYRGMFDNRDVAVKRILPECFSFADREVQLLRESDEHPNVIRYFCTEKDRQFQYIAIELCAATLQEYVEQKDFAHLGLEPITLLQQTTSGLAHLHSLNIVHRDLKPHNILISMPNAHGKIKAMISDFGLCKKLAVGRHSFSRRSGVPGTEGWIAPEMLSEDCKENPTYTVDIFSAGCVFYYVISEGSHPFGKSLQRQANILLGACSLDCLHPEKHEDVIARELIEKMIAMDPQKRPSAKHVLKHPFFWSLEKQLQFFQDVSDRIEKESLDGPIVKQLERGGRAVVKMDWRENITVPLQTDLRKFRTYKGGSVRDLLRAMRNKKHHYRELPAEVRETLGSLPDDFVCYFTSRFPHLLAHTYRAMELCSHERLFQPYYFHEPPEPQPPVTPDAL
UniProt Q15375, sequence (whole entry, looked up): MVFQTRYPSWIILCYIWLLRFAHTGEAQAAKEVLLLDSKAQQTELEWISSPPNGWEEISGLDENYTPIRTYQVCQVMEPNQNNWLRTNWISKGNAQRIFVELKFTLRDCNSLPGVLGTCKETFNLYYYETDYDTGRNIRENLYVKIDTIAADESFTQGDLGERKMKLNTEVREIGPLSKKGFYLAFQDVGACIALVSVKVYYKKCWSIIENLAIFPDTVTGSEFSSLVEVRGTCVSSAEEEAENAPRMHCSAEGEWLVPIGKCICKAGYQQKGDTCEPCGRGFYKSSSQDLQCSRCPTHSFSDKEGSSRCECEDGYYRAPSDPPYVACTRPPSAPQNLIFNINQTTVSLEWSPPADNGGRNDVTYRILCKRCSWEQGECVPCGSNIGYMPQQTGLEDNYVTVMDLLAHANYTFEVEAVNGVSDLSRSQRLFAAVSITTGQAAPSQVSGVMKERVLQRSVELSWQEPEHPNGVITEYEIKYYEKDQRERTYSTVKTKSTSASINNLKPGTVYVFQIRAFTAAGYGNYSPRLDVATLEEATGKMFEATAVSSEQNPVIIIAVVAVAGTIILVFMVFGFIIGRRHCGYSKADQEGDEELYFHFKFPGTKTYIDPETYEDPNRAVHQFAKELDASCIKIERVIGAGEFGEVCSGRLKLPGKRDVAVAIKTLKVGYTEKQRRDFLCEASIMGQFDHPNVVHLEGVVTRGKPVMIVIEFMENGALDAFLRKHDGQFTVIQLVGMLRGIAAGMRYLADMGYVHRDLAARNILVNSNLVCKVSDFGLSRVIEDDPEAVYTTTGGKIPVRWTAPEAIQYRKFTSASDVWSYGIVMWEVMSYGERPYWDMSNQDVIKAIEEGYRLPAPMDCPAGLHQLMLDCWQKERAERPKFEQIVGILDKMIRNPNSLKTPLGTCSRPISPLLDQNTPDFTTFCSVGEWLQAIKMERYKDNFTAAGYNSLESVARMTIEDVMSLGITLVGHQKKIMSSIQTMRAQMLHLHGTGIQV
UniProt O75716, sequence (whole entry, looked up): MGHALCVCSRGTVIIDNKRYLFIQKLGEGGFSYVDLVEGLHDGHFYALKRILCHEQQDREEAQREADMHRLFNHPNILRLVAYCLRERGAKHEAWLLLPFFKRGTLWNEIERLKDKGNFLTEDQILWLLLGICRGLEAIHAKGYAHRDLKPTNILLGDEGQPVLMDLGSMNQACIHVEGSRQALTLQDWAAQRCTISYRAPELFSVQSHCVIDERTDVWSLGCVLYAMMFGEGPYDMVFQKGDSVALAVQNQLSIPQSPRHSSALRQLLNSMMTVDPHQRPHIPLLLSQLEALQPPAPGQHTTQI
UniProt Q00532, sequence (whole entry, looked up): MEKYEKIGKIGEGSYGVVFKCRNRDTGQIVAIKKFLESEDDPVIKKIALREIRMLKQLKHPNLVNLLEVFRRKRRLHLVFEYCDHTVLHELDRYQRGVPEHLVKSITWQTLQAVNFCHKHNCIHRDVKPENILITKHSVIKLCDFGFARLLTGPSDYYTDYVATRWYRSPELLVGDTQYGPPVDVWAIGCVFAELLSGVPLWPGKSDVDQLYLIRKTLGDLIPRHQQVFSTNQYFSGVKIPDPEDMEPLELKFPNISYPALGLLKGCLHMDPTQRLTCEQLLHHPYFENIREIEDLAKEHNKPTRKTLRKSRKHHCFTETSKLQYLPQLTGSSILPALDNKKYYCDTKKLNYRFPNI
UniProt O94806, sequence (whole entry, looked up): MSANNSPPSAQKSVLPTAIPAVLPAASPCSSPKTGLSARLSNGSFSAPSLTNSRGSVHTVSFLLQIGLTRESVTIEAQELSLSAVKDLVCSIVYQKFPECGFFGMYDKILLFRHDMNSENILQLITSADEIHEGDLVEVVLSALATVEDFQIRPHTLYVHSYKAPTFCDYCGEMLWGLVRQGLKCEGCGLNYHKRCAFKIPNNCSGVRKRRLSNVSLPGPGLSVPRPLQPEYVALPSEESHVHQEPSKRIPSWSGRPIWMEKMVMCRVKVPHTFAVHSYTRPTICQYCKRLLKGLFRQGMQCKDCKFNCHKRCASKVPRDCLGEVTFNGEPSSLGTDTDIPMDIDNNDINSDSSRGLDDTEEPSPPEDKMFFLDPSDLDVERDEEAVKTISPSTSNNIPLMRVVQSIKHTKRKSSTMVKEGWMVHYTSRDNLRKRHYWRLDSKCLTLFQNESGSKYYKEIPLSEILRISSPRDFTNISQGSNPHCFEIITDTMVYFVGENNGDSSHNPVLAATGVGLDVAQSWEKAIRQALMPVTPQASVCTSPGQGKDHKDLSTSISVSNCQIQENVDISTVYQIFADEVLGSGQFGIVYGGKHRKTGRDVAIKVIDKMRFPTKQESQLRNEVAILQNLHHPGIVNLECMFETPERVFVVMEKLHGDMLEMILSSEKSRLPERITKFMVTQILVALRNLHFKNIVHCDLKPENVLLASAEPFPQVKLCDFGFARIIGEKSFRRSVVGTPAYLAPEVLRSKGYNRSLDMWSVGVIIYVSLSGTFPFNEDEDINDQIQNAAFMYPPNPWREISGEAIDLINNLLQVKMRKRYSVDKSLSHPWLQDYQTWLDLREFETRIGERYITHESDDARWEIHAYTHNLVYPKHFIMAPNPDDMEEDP

Sample 1
SMILES: Cn1nc(C(F)(F)F)cc1-c1cnc(N2CCc3cc(S(=O)(=O)Nc4c(F)cc(Cl)cc4F)cc(N4CCCC4=O)c32)nc1
Technique: competition with immobilised ligand
Tested at: 1 µM
Endpoint: remaining binding
EGFR (Homo sapiens, UniProt P00533, T790M); cell-free assay: 94%
DMPK (Homo sapiens, UniProt Q09013); cell-free assay: 82%
EPHA7 (Homo sapiens, UniProt Q15375); cell-free assay: 78%
CDK13 (Homo sapiens, UniProt Q14004); cell-free assay: 79%
Tyrosine-protein kinase ABL1, non-phosphorylated (ABL1, Homo sapiens, UniProt P00519, F317L); cell-free assay: 60%
EGFR (Homo sapiens, UniProt P00533, del747-750/T751S); cell-free assay: 100%
CDKL1 (Homo sapiens, UniProt Q00532); binding: 77%
MAPK11 (Homo sapiens, UniProt Q15759); cell-free assay: 100%
PRKD3 (Homo sapiens, UniProt O94806); cell-free assay: 100%
ERN1 (Homo sapiens, UniProt O75460); cell-free assay: 92%
MAP3K3 (Homo sapiens, UniProt Q99759); cell-free assay: 89%
EGFR (Homo sapiens, UniProt P00533, del746-750); cell-free assay: 100%
TTK (Homo sapiens, UniProt P33981); cell-free assay: 97%
STK16 (Homo sapiens, UniProt O75716); cell-free assay: 92%
MAP3K1 (Homo sapiens, UniProt Q13233); cell-free assay: 70%
CSNK1A1L (Homo sapiens, UniProt Q8N752); cell-free assay: 100%

Sample 2
Host: human
Matrix: microsomes or S9
Tested at: 2 µM
Time: 0.5 h
Endpoint: remaining compound
CCOc1cc(=O)n2c(c1C(=O)Nc1cc(OC)c(Cl)cc1OC)CCCC2: > 99%
COc1cccc(N2CCN(c3ncnc4[nH]cnc34)CC2)c1: 78.6%
CS(=O)(=O)c1nc2c(n1-c1ccccc1)C(=O)C(c1ccccc1)S(=O)(=O)N2Cc1ccccc1 (stereo not shown): 1.92%
CCOC(=O)N1CCN(C(=O)C2CCC(CNS(=O)(=O)CC)CC2)CC1 (stereo not shown): 70.7%
Oc1cc(F)cc(CNC2CCCN(c3cc(N4CCOCC4)ncn3)C2)c1 (stereo not shown): 18.5%
Cn1c(C(=O)Nc2cnn(C(C)(C)C(=O)O)c2)cccc1=O: > 100%
COc1ccc(C)cc1NS(=O)(=O)c1cn(C)nc1C: 86.2%

Sample 3
Target: Calcium/calmodulin-dependent protein kinase type II subunit alpha (CAMK2A, Homo sapiens, UniProt Q9UQM7)
UniProt Q9UQM7, sequence (whole entry, looked up): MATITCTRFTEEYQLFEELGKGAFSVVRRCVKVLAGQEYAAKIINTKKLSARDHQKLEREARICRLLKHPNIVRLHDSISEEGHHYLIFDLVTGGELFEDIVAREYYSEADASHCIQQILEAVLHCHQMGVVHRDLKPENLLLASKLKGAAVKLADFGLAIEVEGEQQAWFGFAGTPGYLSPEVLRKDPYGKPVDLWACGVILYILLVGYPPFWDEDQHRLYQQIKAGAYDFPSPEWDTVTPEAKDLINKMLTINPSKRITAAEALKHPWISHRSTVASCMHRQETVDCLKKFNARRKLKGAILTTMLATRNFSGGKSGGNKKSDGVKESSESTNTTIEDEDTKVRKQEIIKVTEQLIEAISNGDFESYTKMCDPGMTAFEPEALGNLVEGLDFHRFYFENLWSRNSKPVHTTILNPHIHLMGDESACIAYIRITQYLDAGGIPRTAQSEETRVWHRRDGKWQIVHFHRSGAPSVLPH
Read-out: enzyme activity
Action: inhibitor
Tested at: 10 µM
Endpoint: inhibition
COc1ccc(CN(CCN(C)C)c2ccccn2)cc1: -1%
C[C@@H]1CC[C@H]2C(C)(C)[C@H]3C[C@@]12CC[C@@]3(C)O: 0%
CC(=O)[C@@]1(O)CC[C@H]2[C@@H]3CCC4=CC(=O)CCC4=C3[C@@H](c3ccc(N(C)C)cc3)C[C@@]21C: -1%
C[C@]1(O)C[C@@H](O)[C@]2(O)C=CO[C@@H](O[C@@H]3O[C@H](CO)[C@@H](O)[C@H](O)[C@H]3O)[C@@H]21: -13%

Sample 4
SMILES: CC(C)n1cnc(-c2ccc(F)cc2)c1-c1ncc(C(=O)Nc2ccc(N3CCN(C)CC3)cc2)[nH]1
Technique: phase 2a trial
Host: idiopathic pulmonary fibrosis patients
Endpoint: adverse event incidence
item: weight decreased; 30 mg once daily, grade 5: 0%
item: hepatic enzyme abnormal; 30 mg once daily, grade 3: 0%
item: infection; 60 mg once daily, grade 1: 0%
item: arthritis; 30 mg once daily, grade 4: 0%
item: arthritis; 60 mg once daily, grade 5: 0%
item: immunoglobulins increased; 30 mg once daily, grade 4: 0%
item: appendicitis; 60 mg once daily, grade 5: 0%
item: proteinuria; dose not given, grade 2, all arms pooled: 0%
item: drug eruption; 30 mg once daily, grade 3: 0%
item: QRS axis abnormal; 60 mg once daily, grade 5: 0%
